Published values from different studies.
Every numbered part comes from another study and shows a few of its results, in no order. Changes are numbered by the printed parent chain.

Set 1 — target: CCNE2, cyclin fold, Cln2 fusion (human); technique: yeast growth competition, sequencing; sample: yeast; setting: strong parent motif; reference: not given; direction: higher = stronger binding
Starting sequence: E2F1 docking peptide (human); PPVKRRLDFETDH; partner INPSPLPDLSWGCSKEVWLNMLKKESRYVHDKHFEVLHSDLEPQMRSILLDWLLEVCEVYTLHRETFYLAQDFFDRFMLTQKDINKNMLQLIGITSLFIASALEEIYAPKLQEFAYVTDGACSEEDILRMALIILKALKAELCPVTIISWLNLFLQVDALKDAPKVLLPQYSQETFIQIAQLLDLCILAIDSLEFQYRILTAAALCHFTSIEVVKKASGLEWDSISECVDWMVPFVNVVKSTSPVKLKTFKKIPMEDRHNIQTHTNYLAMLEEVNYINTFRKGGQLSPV
Variant | normalised enrichment score
R5I | 0.251
F9W | 2.77
F9A | 0.647
L7D | -0.171
P2C | 5.72
R6T | 3.06
R6H | 1.45
T11E | 4.51
R6M | 3.14
R6D | -0.119

Set 2 — technique: RNA Bind-n-Seq; form: RNA; sample: in vitro; concentration: 365 nM; reference: no-protein control; direction: higher = stronger binding
Target: RNA binding protein fox-1 homolog 2, RRM domain, GST-SBP tag (RBFOX2, Homo sapiens, UniProt O43251-10, residues 100-194)
Setting: natural RNA segment, single round, ends assumed
All sequences stand within: GGGAGUUCUACAGUCCGACGAUC … UGGAAUUCUCGGGUGCCAA
Construct (chain): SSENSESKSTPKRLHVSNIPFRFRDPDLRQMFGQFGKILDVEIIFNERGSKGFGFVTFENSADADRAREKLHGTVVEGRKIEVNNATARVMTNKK
Sequence | RBNS enrichment (R)
AGUGCUCCUGCUUUCAGUCCCCUCUGCCUUCCAGUGAUCUCUUUCCUACAAGCUGCUUCGAGGUCCAGGGGCCUCUGCUUCUUAAACACUAUGUCCCAGUCUUCUCAUGU | 0.345
UUGAUAUGAUCCAACAAAUUUGAUCAGAAGCUGUAGGUAAAUCCUCUUCUGAAGCCAAAAUGGUAUAUUAAAUAUAAUUUAUUGGUACUUCCAUUUUCUCUUCCUUCUUA | 0.697
CGGUGGCUGGUCUUCCAUUUACAGUGUCACUAUUCCUUGAUGGAGCAGUUAUGUGCCCGCUCUGGUGAUGGCCCCAGCCAGUGAUGCUAGGCCUAAUUGUUCAUCAUCAA | 0.822
AGAAGCCAAGUGGGACUCACUGCUGCCAUUCUCCUUGUGCUUGGUCUUCACUAGACCCCAGCCCCCUCUACCCUUCUUACCACCUCCCUAUAGCCUCAGCUUCAGAAGCC | 0.689
AUAGUGCAGGCUUGGGGAGCUUUAAGCCUCAGUUAUAUAACCCACGAAAAACAGAGCCUCCUAGAUGUAACAUUCCUGAUCAAGGUACAAUUCUUUAAAAUUCACUAAUG | 0.335
UGCUCCAGAUAAUCUUGUCCCUGCUCCUCACUUCCACAGGGGACAUUGUGAGGCCACUGGCAUGGAUGCUAUGCACCCCACCCUUUGCUGGCCAUAUUCCUCCUGUCCCC | 0.326
UAUGCUCAAGAUACUGAAGCUAUCUGUGGUAUUUCAUGUAACAUUUCUAAGAAUAAGAGCUGGCAAAUGGGAAACUUGGGGUGGAGAGAGCAUACUUAUUGGGCUGUGAA | 0.641
AACUUAUGUUUCGCAGCAAAAGUGGAAACCUGUCUGUAAAGCAAGUGUAACGAUGAUUUCCUGUAUCAUGGGGGCUCAAACCAGGACCUCUCUAGUUGCUGUUAGGAAUG | 0.568

Set 3 — technique: RNA Bind-n-Seq; form: RNA; sample: in vitro; concentration: not given; reference: input RNA pool; direction: higher = stronger binding
Target: RING finger protein unkempt homolog, zinc fingers 1-6, GST-SBP tag (UNK, Homo sapiens, UniProt Q9C0B0, residues 30-357)
Setting: RNA with constant flanks, human and mouse sites, ends assumed
All sequences stand within: GGGAGUUCUACAGUCCGACGAUC … CAACAGAGGAUUGAGCAUCA
Construct (chain): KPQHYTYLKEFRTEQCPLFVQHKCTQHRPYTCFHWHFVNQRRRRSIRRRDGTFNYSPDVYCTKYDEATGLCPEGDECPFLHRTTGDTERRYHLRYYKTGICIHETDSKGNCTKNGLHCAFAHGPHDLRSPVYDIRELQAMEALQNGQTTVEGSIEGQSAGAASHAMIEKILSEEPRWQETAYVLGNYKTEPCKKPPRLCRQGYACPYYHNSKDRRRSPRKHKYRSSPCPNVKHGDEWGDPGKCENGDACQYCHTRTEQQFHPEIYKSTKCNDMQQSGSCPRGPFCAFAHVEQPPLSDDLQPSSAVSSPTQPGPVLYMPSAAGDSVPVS
Sequence | bound/input enrichment [ratio]
CGGAAGAAAGAUACAAAUAAAAGCAUCAAGCAUUGCACAGUUCUCUCCAAUAAUGUAGAUCAUCUUUUACUGAACUUAACACUGUCUGAUAUCAUGGUCUCGCUGGCAAAUGCUUCAACC | 0.25
ACCCUGGAGGAUCCCUGGACCGGCAGUGAGAGCGAUAAGUUCGUCCUUUUGGGUUAUCUUGACCAGCUGCGGAAGGAUCCAGCAUUUCUGUCUUCAGAAGCUGUGCUCCCUGACCUGACU | 0.0901
CCUGCAAUUGUUCAUAUUAACCACCAGCCAUACUUGGAAAGGGGAGAUGGCCCAAUCUGUCUAGUUCUGGCUCCUACCAGAGAGCUUGCCCAGCAAGUACAGCAGGUGGCCGAUGACUAU | 0.202
AAGAAAGACCAUAUUAAACUUACAUGUUUGAGGAUUGCGUCACCUUGUCUCCUGUACAAGCAGUUUCUCUGUUCGGUGAUCAAUGUCACUCACAGGAACUUAAGUAACUAACGAAAUGAG | 0.207
CACUUGUAUGAAAUAUUCCCUGCAGAGUGAGCAGGAAAUAGGAACAAAGGAAUGGAAUGCUUAGUGGUGGUGGGGGUGCUAUGGGGGGUGGGUGGGAGAGUUGCAGACUUGAGGAGGUUU | 0.661
GGAAGAUAAGAUUUCUGUCUACUAAGUGAUGCUGUGAUACCUUAGGCACUAAAGCAGAGCUAGUAAUGCUUUUUGAGUUUCAUGUUGGUUUAUUUUCACAGAUUGGGGUAACGUGCACUG | 0.204
AUUCUGGCAGCUGUCCGGAAGGUCCUACAUAAGGACAAGUCACAAGAGAAUGCAGGCAUGUUCAAGAAUGGAGGCCUCCUUUUCCGAAUAGCCCUACUUACCAUUGGAGGCACCAGCAUG | 0.345
AGAACAUUCUGCUAUCUGCUUCAGAAGGACGAAGGUGGUUGUGAUUUUUAUCAUUCACUACUCUUGAUGUGUGGUUUUUGAGACAAGGUCUUAUUGCGUAGACUCACUGUGUAGCCAAGA | 0.208

Further values, each from its own experiment
Substance | target | assay | test system | setting | scale | endpoint | result
PhoQ, residues 284 288 289 292 302 303 SIHLQL | PhoP, residues 12 14 15 18 19 NMSSL (Escherichia coli, UniProt P23836) | Sort-seq, item: YFP reporter | E. coli | PhoQ-PhoP variant library, together with: 10 µM Mg2+ | reference: high Mg2+ state, higher = stronger signaling | fold induction | 13.5
